Experimental data from different studies.
± gives the spread as reported.
BRDT BD1: Bromodomain testis-specific protein, BD1 (BRDT, Homo sapiens, UniProt Q58F21)
RIOK2: Serine/threonine-protein kinase RIO2 (RIOK2, Homo sapiens, UniProt Q9BVS4)
UniProt P00519, sequence (whole entry, unmodified, looked up): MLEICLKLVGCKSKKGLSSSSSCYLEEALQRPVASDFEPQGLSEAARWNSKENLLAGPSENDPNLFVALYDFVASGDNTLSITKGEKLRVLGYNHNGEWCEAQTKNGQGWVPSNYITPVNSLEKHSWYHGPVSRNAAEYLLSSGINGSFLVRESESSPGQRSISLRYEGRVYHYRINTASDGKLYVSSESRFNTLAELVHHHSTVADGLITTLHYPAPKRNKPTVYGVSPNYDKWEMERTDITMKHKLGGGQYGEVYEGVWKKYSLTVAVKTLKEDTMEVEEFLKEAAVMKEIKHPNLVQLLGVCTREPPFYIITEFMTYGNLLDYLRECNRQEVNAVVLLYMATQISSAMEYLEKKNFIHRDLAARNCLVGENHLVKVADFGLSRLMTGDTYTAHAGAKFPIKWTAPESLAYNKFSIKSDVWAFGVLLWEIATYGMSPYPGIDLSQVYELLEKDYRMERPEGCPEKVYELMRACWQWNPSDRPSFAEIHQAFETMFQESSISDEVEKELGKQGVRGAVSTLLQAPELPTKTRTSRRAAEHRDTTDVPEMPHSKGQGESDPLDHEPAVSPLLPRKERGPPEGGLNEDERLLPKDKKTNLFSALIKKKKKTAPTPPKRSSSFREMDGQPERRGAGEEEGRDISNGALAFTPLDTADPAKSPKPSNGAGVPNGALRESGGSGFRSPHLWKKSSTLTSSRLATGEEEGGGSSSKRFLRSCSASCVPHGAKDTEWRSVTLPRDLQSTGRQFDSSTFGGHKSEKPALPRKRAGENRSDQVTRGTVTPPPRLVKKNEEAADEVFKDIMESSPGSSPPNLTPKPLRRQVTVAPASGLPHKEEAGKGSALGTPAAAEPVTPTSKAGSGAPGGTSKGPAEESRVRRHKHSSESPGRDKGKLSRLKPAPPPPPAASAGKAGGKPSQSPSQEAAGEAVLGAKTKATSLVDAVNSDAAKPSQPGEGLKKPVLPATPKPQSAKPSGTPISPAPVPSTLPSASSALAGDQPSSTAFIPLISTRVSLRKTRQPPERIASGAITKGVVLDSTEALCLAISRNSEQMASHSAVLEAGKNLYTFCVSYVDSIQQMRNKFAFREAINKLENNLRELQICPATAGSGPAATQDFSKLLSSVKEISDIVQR
UniProt Q9BVS4, sequence (whole entry, looked up): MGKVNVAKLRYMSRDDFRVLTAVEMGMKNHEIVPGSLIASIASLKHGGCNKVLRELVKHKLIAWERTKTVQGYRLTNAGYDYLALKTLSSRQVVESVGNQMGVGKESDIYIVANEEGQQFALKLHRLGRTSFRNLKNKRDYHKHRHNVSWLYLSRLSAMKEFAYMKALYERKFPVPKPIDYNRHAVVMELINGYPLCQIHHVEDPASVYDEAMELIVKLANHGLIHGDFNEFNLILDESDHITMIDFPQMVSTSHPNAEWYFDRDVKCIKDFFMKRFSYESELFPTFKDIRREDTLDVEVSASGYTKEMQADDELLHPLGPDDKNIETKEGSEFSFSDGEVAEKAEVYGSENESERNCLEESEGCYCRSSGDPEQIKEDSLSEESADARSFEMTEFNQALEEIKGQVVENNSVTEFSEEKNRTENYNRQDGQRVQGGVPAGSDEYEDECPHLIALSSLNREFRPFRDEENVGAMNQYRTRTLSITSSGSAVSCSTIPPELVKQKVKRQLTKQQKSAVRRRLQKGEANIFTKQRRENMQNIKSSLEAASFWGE
UniProt Q9HC98, sequence (whole entry, looked up): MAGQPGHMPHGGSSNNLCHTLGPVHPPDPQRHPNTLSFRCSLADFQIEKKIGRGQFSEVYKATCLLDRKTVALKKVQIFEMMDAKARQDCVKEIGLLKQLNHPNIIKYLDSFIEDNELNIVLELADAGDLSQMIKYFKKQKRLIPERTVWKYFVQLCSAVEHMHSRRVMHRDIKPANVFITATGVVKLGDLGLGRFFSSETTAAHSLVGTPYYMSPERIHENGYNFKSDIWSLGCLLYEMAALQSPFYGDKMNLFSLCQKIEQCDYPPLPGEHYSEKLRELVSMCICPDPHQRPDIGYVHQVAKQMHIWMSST

Compound	tested on	assay	test system	setting	scale	measurement	value
COC1CN([C@H]2CC[C@H]([C@@]3(C)Oc4c(Cl)cc(C(=O)NCc5c(SC)cc(C)[nH]c5=O)c(C)c4O3)CC2)C1	–	RNA-seq, refers to: ACP5 mouse homolog	mouse, HT-1376 xenograft, whole blood	dose not given	reference: vehicle	log2 fold change	0.431
CC(=O)N1c2ccc(-c3ccc(CNC(=O)c4cn5cc(-c6cnc(N)nc6)nc(N6CCOCC6)c5n4)cc3)cc2CC[C@@H]1C	BRDT BD1	binding, competition with immobilised ligand	–	10 µM	–	remaining binding	0%
COc1cc(Nc2nccc(-c3cnn4nc(OC)ccc34)n2)cc(C(F)(F)F)c1	Tyrosine-protein kinase ABL1, non-phosphorylated (ABL1, Homo sapiens, UniProt P00519)	binding, competition with immobilised ligand	–	1 µM	–	remaining binding	95%
CN1CCN(Cc2ccc(NC(=O)c3cccc(C#Cc4cnc(N)c5ncccc45)c3)cc2C(F)(F)F)CC1	RIOK2	cell-free assay, competition with immobilised ligand	–	50 nM	–	remaining binding	86%
Cc1nn(-c2cccc(N)c2)c(=O)c2cnc(Nc3ccc(N4CCNCC4)cc3)nc12	NEK6 (Homo sapiens, UniProt Q9HC98)	enzyme activity, inhibitor	–	–	–	IC50	3.38 µM
Cc1cc(NC(=O)[C@H](O)c2cc(F)cc(F)c2)ccc1-c1cnc(N)c(C(=O)NC(C)C)c1	RIOK2	binding, competition with immobilised ligand	–	0.1 µM	–	remaining binding	93%
Cc1cnc2nc1Nc1cccc(c1)COC/C=C/COCc1cc(ccc1OCCN1CCOCC1)N2	ABL1 (Homo sapiens, UniProt P00519, Q252H)	–	–	0.1 µM	reference: DMSO control	remaining binding	51%
Cc1ncsc1-c1ccc(C(C)NC(=O)C2CC(O)CN2C(=O)C(NC(=O)CCCCCCCCCCN2CCCC(Nc3ncc(Cl)c(Nc4ccccc4S(=O)(=O)C(C)C)n3)C2)C(C)(C)C)cc1 (stereo not drawn)	22Rv1	RNA-seq, refers to: ZNF697 mRNA	–	concentration not given	reference: DMSO	log2 fold change	-1.25
C=CC(=O)N1CCc2ccc(-n3c(=O)ccc4cnc5ccc(-c6cnn(C)c6)cc5c43)cc21	Tyrosine-protein kinase ABL1, phosphorylated (ABL1, Homo sapiens, UniProt P00519, F317L)	KINOMEscan, refers to: (F317L)-phosphorylated	–	1 µM	reference: control	remaining binding	91%
Cc1ccc(-c2c(/C=C(\C#N)C(=O)NC(C)C)n(CCCO)c3ncnc(N)c23)cc1	Tyrosine-protein kinase ABL1, non-phosphorylated (ABL1, Homo sapiens, UniProt P00519, H396P)	cell-free assay, competition with immobilised ligand	–	1 µM	–	remaining binding	100%
Cn1cc(-c2cc(N3CCCCS3(=O)=O)ccc2N[C@H]2CC[C@H](C)CC2)c2cc[nH]c2c1=O (stereo in doubt)	BRDT BD1	binding, competition with immobilised ligand	–	1 µM	–	remaining binding	18%
CC(C)=CCc1cc(C(=O)/C=C/c2ccc(O)cc2)c(O)cc1O	–	phase I metabolism, substrate	minipig liver microsomes	–	–	Km	22.4 ± 4.58 µM

A few entries again:
Compound	tested on	assay	test system	setting	scale	measurement	value
CN1CCN(Cc2ccc(NC(=O)c3cccc(C#Cc4cnc(N)c5ncccc45)c3)cc2C(F)(F)F)CC1	RIOK2	cell-free assay, competition with immobilised ligand	–	50 nM	–	remaining binding	86%
Cc1nn(-c2cccc(N)c2)c(=O)c2cnc(Nc3ccc(N4CCNCC4)cc3)nc12	NEK6 (Homo sapiens, UniProt Q9HC98)	enzyme activity, inhibitor	–	–	–	IC50	3.38 µM
